Experimental data from different studies.
Every numbered part comes from another study and shows a few of its results, in no order.

Series 1
Target: Hepatocyte nuclear factor 3-beta, forkhead domain (FOXA2, Homo sapiens, UniProt Q9Y261, residues 142-269)
Method: protein-binding microarray
Molecule type: hairpin DNA
Sample: in vitro
Concentration: not given
Notes: whole hairpin DNA, median over replicate spots
Relative to: not given
Direction: higher = stronger binding
Measurement: median fluorescence
Constant ends, left off below: GAGGCCA … TGGCCTCACACTC
Construct (chain): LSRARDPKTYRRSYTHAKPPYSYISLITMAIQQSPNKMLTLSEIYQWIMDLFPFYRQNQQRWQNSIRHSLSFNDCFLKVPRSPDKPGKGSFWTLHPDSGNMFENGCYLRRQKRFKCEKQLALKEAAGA
TCGAACCAACGCCTCCTGGCGTTGGTTCGA (5mC at 9 35): 3220 a.u.
CGCAAACAACGCCTCCTGGCGTTGTTTGCG (5mC at 8): 3650 a.u.
TGTAACCATCGCCTCCTGGCGATGGTTACA: 3050 a.u.
TGTAACCAAGGCCTCCTGGCCTTGGTTACA (5mC at 28): 3040 a.u.
TGGAAACAACGCCTCCTGGCGTTGTTTCCA: 3150 a.u.
TGCAAACACGGCCTCCTGGCCGTGTTTGCA (5mC at 16): 3360 a.u.
TGTAACCTACGCCTCCTGGCGTAGGTTACA: 3020 a.u.
TGTAACCGACGCCTCCTGGCGTCGGTTACA (5mC at 14): 3320 a.u.

Series 2
Target: Eukaryotic initiation factor 4A-I (EIF4A1, Homo sapiens, UniProt P60842, residues 1-406, full length assumed)
UniProt P60842, sequence (whole entry, looked up): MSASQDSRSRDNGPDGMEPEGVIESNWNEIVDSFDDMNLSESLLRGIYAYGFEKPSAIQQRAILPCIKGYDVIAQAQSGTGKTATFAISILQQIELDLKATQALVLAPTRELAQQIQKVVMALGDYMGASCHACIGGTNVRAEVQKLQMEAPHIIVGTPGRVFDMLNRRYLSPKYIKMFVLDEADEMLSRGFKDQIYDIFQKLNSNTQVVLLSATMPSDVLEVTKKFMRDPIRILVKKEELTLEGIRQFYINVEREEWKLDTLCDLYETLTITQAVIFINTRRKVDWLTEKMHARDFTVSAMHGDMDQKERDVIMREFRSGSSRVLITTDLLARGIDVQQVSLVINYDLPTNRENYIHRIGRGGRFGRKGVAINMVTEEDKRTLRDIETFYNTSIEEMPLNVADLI
Method: RNA Bind-n-Seq
Molecule type: RNA
Sample: in vitro
Concentration: not given
Notes: 4-mer, random 30-nt RNA, single round
Together with: RocA, ADP, phosphate
Relative to: input library
Direction: higher = stronger binding
Measurement: 4-mer enrichment
UAGC: 0.726 fold
AGCC: 0.809 fold
CUUA: 0.638 fold
GCUG: 0.828 fold
ACGU: 0.723 fold
ACAU: 0.716 fold
AAGA: 1.93 fold
UAAC: 0.687 fold

Series 3
Target: Interferon regulatory factor 7, full length, phosphomimetic (IRF7, Homo sapiens, UniProt Q92985, residues 1-503, S471D/S472D/S475D/S476D/S477D/S483D/S484D/S487D)
Method: protein-binding microarray
Molecule type: double-stranded DNA, one strand shown
Sample: in vitro
Concentration: 2200 nM top
Notes: 60-bp whole probe
Together with: salmon DNA 0.4 mg/ml
Relative to: random background probes
Direction: higher = stronger binding
Measurement: fitted relative affinity
Constant ends, left off below: GCCTAGCAC … GTCTTGATTCGCTTGACGCTGCTG
Target sequence (chain): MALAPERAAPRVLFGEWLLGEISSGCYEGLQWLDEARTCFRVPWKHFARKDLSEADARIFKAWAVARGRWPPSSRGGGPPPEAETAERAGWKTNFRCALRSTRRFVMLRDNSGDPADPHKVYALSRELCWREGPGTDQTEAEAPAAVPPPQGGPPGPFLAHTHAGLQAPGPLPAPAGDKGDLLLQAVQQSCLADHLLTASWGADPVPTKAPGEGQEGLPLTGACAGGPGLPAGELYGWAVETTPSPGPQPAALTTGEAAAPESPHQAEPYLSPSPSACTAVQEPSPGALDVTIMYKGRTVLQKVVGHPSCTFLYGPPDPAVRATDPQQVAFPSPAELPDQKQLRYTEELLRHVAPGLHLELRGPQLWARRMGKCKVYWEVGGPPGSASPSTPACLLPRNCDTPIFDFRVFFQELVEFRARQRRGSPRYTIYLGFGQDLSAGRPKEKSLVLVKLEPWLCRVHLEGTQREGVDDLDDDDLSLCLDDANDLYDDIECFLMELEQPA
GACGATATCGGGTAACGAGACGTGCTA: -0.311 z-score
TTTGGTTTCGACACTGGGTTAGTGCTA: 4.01 z-score
TTAGTTTTCGGTTTCGGTTAGTGCTAG: 17.2 z-score
ATAGGTATCGGGTATCGGTTAGTGCTA: 0.808 z-score
TCATATATGTATATATGACTGTGCTAG: 0.917 z-score
GACGATTTCGCGACTGGAGACGTGCTA: 0.994 z-score
GACGGTTTCGGGACTGGGGGCGTGCTA: 3.85 z-score
GACGGCATCGACTATCGGGACGTGCTA: -0.671 z-score

Further values, each from its own experiment
O=C(c1c(OCC2CC2)cc(=O)n2c1CCOCC2)N1CCN(c2ccccc2)CC1
remaining compound (human, microsomes or S9; 2 µM, 0.5 h): 74.6%
